Assay results pooled from the literature.
“And” joins repeats or separate records; there may be more than shown.
CAMK2A: Calcium/calmodulin-dependent protein kinase type II subunit alpha (CAMK2A, Homo sapiens, UniProt Q9UQM7)
Chain of UniProt Q9UQM7 (whole entry, looked up): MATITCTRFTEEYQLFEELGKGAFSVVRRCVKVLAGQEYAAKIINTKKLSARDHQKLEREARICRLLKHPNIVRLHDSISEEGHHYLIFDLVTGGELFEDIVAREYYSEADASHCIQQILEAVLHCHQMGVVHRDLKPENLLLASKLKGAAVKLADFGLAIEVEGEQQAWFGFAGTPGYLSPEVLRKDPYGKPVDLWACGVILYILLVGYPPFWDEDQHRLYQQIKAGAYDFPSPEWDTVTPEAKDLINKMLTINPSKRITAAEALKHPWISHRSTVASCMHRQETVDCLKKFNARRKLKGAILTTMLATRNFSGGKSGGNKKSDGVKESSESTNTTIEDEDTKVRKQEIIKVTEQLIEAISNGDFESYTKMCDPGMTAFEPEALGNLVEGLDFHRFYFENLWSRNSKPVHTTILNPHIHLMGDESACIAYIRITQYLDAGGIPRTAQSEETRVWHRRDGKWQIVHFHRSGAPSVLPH
BRD4 BD1: Bromodomain-containing protein 4, BD1 (BRD4, Homo sapiens, UniProt O60885)

With CC[C@H](C)c1nc2cc(Nc3ccnc4ccc(S(=O)(=O)C(C)C)cc34)ccc2s1 the viability was 36.8% (L929; necroptosis protection, CCK-8; 1.25 µM, added: TNF-α plus zVAD).
The inhibition of CC(C)=CCC[C@@](C)(O)[C@H]1CC[C@]2(C)[C@@H]1[C@H](O)C[C@@H]1[C@@]3(C)CC[C@H](O)C(C)(C)[C@@H]3[C@@H](O[C@@H]3O[C@H](CO)[C@@H](O)[C@H](O)[C@H]3O)C[C@]12C is reported as 28% (CAMK2A; enzyme activity, inhibitor; 10 µM).
Oc1ccc(C2NCc3ccccc3-n3cccc32)cc1Cl (stereo not drawn) has a remaining compound of 60.2% (human, microsomes or S9; 2 µM, 0.5 h).
The viability of CC(C)(C)c1nc(-c2cccc(NS(=O)(=O)c3c(F)cccc3F)c2F)c(-c2ccnc(N)n2)s1 is reported as 69.6% and 68.8% and 67.4% and 67.3% (L929; CCK-8; 25 µM, added: zVAD).
With Cc1ccc(NC=C2C(=O)NC(=O)N(C)C2=O)cc1 the inhibition was 11.3% (BRD4 BD1; acetyl-histone H4 peptide binding, AlphaScreen displacement; 50 µM).
For N#Cc1c(Oc2ccc(F)c(NC(=O)Cc3cccc(C(F)(F)F)c3)c2)ccc2nc(NC(=O)C3CC3)sc12, the viability was 28.6% (L929; necroptosis protection, CCK-8; 0.078 µM, added: TNF-α-induced).
C[C@]12CC[C@@H](O)C[C@H]1CC[C@@H]1[C@@H]2CC[C@]2(C)C(=O)CC[C@@H]12 has an inhibition of -57% (CAMK2A; enzyme activity, inhibitor; 10 µM).
O=C1NC(=O)N(c2ccccc2)C(=O)C1=CNc1ccc(F)cc1 gave an inhibition of 3.85% (BRD4 BD1; acetyl-histone H4 peptide binding, AlphaScreen displacement; 50 µM).
CC(C)S(=O)(=O)c1ccc2nccc(Nc3ccc4scnc4c3)c2c1 has a viability of 34.7% (L929; necroptosis protection, CCK-8; 1.25 µM, added: TNF-α plus zVAD).

A few entries again:
CC(C)S(=O)(=O)c1ccc2nccc(Nc3ccc4scnc4c3)c2c1 has a viability of 34.7% (L929; necroptosis protection, CCK-8; 1.25 µM, added: TNF-α plus zVAD).
